Experimental data of several laboratories.
Every numbered part comes from another study and shows a few of its results, in no order.

Series 1 — technique: protein binding microarray; form: double-stranded DNA, one strand shown; medium: in vitro; tested at: not given; relative to: not given; direction: higher = stronger binding; quantity: E-score
Target: Histone acetyltransferase KAT6A, winged helix 2, GST fusion (KAT6A, Homo sapiens, UniProt Q92794, residues 85-181)
Setting: 8-mer, flanks averaged, mean of 2 arrays, mostly near background
Target sequence (chain): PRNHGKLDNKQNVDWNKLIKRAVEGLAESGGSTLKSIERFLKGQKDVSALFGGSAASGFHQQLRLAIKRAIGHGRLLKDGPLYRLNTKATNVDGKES
GTAGAACA: -0.0942
TGAGCCAA: -0.144
ATTAAAGA: 0.128
CACTAGTC: -0.161
GCCGGAAC: 0.18
GCTTTTCC: 0.0628
CTAGTATC: 0.105

Series 2 — technique: RNA Bind-n-Seq; form: RNA; medium: in vitro; tested at: 365 nM; relative to: no-protein control; direction: higher = stronger binding; quantity: RBNS enrichment (R)
Target: RNA binding protein fox-1 homolog 2, RRM domain, GST-SBP tag (RBFOX2, Homo sapiens, UniProt O43251-10, residues 100-194)
Setting: natural RNA segment, single round, ends assumed
Target sequence (chain): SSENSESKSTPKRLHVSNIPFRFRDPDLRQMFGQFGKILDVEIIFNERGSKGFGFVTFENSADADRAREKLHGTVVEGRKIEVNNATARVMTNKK
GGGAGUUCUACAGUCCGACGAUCGUUUCCUAAUAUUUCAAAGGUUCCAAAGGAUCUAGAGCUCUCUAGUUACAUAGCAUUCAUAUAGGAAUGAGCAGAGACAUCUGAGAAGAGUGGGAGCUCAUGGGUGACAGUGGAAUUCUCGGGUGCCAA: 0.61
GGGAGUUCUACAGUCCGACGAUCCCUUUUAAUGAUGAGGGUAACUAUUUCAGUUGUGAGCCUUCUAGGGCCCCAGGCUGGGAGGCUCAGAGGACUGAAUCUGGGACCUGUGUUCCCCCCGGCAGGCAGGGACAUGGAAUUCUCGGGUGCCAA: 0.489
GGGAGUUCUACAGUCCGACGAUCAACAUCAGCCUUGGGUGGUGUGUUCCUAUAUAAACUCCAAAGGGAAACACACCGACUGCCUCAGCAAUCAUGCAAAGACCUUGCCUGGCCCGGUGGCAAGCGCUGAAAAAUGGAAUUCUCGGGUGCCAA: 0.321
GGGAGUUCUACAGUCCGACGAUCUCCCCUGAGCUGAUCCGCUUCACAGCUUCCUCCUCGUCUGGGAUGGUGCCCAAAUUGCCAGCUGGCAAAAUGAAUAACCGUGAUCUCAAACCCCAGCCUGAUAUAGUCUUUGGAAUUCUCGGGUGCCAA: 0.375
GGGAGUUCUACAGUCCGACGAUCACAUUGUCAUCAUCUUUUUUUUUGAGACAGUUUCGCUCUGUUGCCCAGGCUGGAGUGCAGUGGUGUGAUCUUGGCUUUCUGCAACGUCUGCCUUCCAGGUUGAAGAGGUUUGGAAUUCUCGGGUGCCAA: 0.436

Series 3 — technique: competition protein-binding microarray; form: double-stranded DNA, one strand shown; medium: in vitro; tested at: 2 µM; added: Cbf1 competitor, 0.05 µM; direction: higher = stronger binding; quantity: fluorescence intensity
Target: Phosphate system positive regulatory protein PHO4, full length, GST-tagged (PHO4, Saccharomyces cerevisiae, UniProt P07270, residues 1-312)
Setting: whole 60-bp probe, lowest competitor level
Residues (chain): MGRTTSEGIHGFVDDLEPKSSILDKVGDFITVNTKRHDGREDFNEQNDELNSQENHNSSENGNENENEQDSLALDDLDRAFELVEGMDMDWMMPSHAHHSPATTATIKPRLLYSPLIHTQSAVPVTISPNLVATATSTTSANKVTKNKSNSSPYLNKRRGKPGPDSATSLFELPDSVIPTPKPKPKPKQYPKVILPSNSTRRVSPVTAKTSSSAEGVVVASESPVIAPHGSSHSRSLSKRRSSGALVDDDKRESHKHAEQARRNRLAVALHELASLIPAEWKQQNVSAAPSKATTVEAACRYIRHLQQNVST
GTCTTGTCTCATTGAGCGGTGGGTGTCCCCACTTCAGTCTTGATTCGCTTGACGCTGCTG: 4910 a.u.
AGTTGGTATATTTTGCACGTGTAGTCTAATGTTCTTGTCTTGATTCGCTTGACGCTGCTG: 16600 a.u.
CGTCCTAGTGATTGTCACAACACTTCCATGAGGAAGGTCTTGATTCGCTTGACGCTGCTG: 5080 a.u.
CGTCCTAGAGATTAGCACGTGTTTTCCATGAGGAAGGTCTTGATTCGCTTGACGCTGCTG: 17900 a.u.
CTCTTCAGAGGTAATTGCATGACAGCAAGATTCGCGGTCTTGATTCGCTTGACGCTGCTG: 4220 a.u.
GCTAGAGAGTTTCACCACGTTAATGGACTGAACCTTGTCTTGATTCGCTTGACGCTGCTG: 6270 a.u.

Single results of other studies
PhoQ, residues 284 288 289 292 302 303 SCCLKL — fold induction (PhoP, residues 12 14 15 18 19 AGCRL (Escherichia coli, UniProt P23836); Sort-seq, item: YFP reporter; E. coli; PhoQ-PhoP variant library, added: 10 µM Mg2+; relative to: high Mg2+ state, higher = stronger signaling): 1.54

A few entries again (series 3):
CTCTTCAGAGGTAATTGCATGACAGCAAGATTCGCGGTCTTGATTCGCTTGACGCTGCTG: 4220 a.u.
